Measurements pooled from the literature.
Parts stem from different laboratories: compare values within a part only.

Set 1
Target: Interferon regulatory factor 7, full length, phosphomimetic (IRF7, Homo sapiens, UniProt Q92985, residues 1-503, S101K/S471D/S472D/S475D/S476D/S477D/S483D/S484D/S487D)
Sequence of UniProt Q92985 (whole entry, unmodified, looked up): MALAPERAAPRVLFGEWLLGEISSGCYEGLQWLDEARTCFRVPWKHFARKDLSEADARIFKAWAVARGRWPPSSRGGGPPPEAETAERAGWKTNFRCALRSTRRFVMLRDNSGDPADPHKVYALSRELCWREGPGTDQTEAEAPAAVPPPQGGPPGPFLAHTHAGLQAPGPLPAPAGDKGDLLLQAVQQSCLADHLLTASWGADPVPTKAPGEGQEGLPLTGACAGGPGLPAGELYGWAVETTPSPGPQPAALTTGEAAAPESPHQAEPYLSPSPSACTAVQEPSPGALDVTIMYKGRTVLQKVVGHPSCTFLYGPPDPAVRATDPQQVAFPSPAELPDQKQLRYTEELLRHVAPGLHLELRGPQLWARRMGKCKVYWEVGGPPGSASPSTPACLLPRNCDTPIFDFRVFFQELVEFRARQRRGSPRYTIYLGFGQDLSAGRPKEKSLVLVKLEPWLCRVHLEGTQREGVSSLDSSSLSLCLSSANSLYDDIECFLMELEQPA
Technique: protein-binding microarray
Molecule type: double-stranded DNA, one strand shown
Matrix: in vitro
Tested at: 250 nM
Notes: 60-bp whole probe
With: salmon DNA 0.4 mg/ml
Relative to: random background probes
Direction: higher = stronger binding
Measurement: log fluorescence
All sequences stand within: GCCTAGCAC … GTCTTGATTCGCTTGACGCTGCTG
TTAGATTTCGGGTATCCATTAGTGCTA: 0.772 z-score
TCACTTTTATCCCTGACACTGTGCTAG: 0.737 z-score
GACGATCGCAGTATCGAGACGTGCTAG: -0.195 z-score
GACGATTCCGGGTATCGAGACGTGCTA: 0.643 z-score
TTAGGTAGCGGGTTTCGGTTAGTGCTA: 5.12 z-score
TCATCTCTGTTTTTGCTACTGTGCTAG: 1.04 z-score
GTTCTTTTCTGTTGTCTGTGTGTGCTA: 1.85 z-score
TTAGATTTCAGTTCCGGTTAGTGCTAG: 2.64 z-score
GACGATCTCAGTCTCGAGGCGTGCTAG: -0.128 z-score
GACGTTTTTCATTTTTTTTTGTGCTAG: 0.947 z-score
GTAGGTTCCGGTTTCGGTTAGTGCTAG: 10.7 z-score
TTAGGTCTCCTCCTGCTTTAGTGCTAG: -0.282 z-score
TTAGGACAGCTACTGCTTTAGTGCTAG: -0.314 z-score
AACTTTCTCTGCTCTTTTCAAGTGCTA: 1.13 z-score
GACGGACTGGACTATGGGGACGTGCTA: -0.301 z-score
GACGAACTGAGTTTCGAGACGTGCTAG: 3.45 z-score
GACGATTCCAGTTTCGACACGTGCTAG: 3.39 z-score
GACGGACTGGACCATCGGGACGTGCTA: -0.774 z-score
TTAGGTTCCCTTTTCCTTAAGTGCTAG: 4.48 z-score
GCCGGTATCCTACTGCTGACGTGCTAG: -0.187 z-score
GACGGTATCGAATTTCGGGACGTGCTA: 0.473 z-score
TGAGGTTCCGGTTTCGGTTAGTGCTAG: 11.4 z-score
TCATCACTCTAATCTCACACTGTGCTA: 0.203 z-score
TCATTTTTCTAAGTAAAACTGTGCTAG: 1.34 z-score
TCACTGTTCTTTTCAGTACTGTGCTAG: 0.644 z-score

Set 2
Target: RNA binding protein fox-1 homolog 2, RRM domain, GST-SBP tag (RBFOX2, Homo sapiens, UniProt O43251-10, residues 100-194)
Technique: RNA Bind-n-Seq
Molecule type: RNA
Matrix: in vitro
Tested at: 365 nM
Notes: natural RNA segment, single round, ends assumed
Relative to: no-protein control
Direction: higher = stronger binding
Measurement: RBNS enrichment (R)
Residues (chain): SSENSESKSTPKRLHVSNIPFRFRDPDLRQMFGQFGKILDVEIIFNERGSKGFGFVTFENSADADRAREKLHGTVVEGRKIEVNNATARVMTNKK
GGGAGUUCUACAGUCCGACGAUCAGAACGAACAGUCAGAAGCAAGUGGAACUGAUAACGAUGACCAUCCUGGACGUGAGCUUCCCGCGGUGGCAGAACCGAAUGCUUUCUUCCCCCUCUCCUUCCUCCCCAGUUGGAAUUCUCGGGUGCCAA: 8.42
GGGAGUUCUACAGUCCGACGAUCUAUUCCCCAAGAGUGGUAACUAACCCACAGCCCUGCUCGGUGUGCCCACCGCUGAGAGGCUGCAGUGACUUCCCCAAGUACCGUGGUCUGUGCUAAUUUGUUUUCAGAUUUGGAAUUCUCGGGUGCCAA: 0.294
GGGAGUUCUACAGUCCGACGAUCUGGUGUUAAAACACUUCUGUCCUGUGAGGUUUCCCAAUGGUGUUUUUCUUGUAAAUGUGUUGGACAAAUGUGAAGAUGCAUUGUAGUUUAACCAUAUGCCCACAUUUAGUUGGAAUUCUCGGGUGCCAA: 0.461
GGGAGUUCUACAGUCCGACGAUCCUGCUCUGGCCAUGGCUGUGAAGGGCCCAGCCAGCUCCCUGUUUUGAUGUUCUGUGCAACAGCUCCGGGGUCUUGUGACUGGAGAUCCUCAACAGGCCCUGGAGCCAGGAUGGAAUUCUCGGGUGCCAA: 0.36
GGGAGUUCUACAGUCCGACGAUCCUCCAAAUUCCCCCAGCAGACUUCUACCCUCGCCAAGUUCCCAAAACCCACUCAGCAAAGUUGCCAACCUCGACGGGCUAGCAGUGUCUAAGCAGCGAUGGGUUCAGUGUUGGAAUUCUCGGGUGCCAA: 0.279
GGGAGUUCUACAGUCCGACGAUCAGGUCUAGCCUUAGGAGCAAAUGUAGUAGAUAGUCGAAUAAUAAAUAACUUAAUGUUUUGGACAUAUUUUGUCUACUUUUGAGAAUUAUUUUUAAUAUGUAAAUUCUCUCUGGAAUUCUCGGGUGCCAA: 0.718
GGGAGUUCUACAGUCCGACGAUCAGCCUAGCCAUCCACCCCACACGGAGCUGCAUCCAACAUGCAGACAUGCGCCACCAAGCAGAUCCCAGCAAGGGUGCCCCAGUCACAUCCUUGGCCAUGCAGUUAGCACCUGGAAUUCUCGGGUGCCAA: 0.397
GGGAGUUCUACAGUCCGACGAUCUACCAUGGGGAUCGAUAGGGUGGUUAGCCCUGCGCACUAGGUCCAGCCAAUCUGUGCUCUGGGCCUUGCCUCCCAGGCCACAGUCCUGCUCCCAACUUGUUUGUCCCUAGUGGAAUUCUCGGGUGCCAA: 0.366
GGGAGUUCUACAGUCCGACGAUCGGCUGCGAGCAUUUCCCUCCCGGGAGAGGAGAUCAGGGCGACCUGCACGCACUGCGUAGAGCCUGGAAGGGAAGUGAGAAACCAGCCGACCGGCCCUGCCCCUCUUCCCGUGGAAUUCUCGGGUGCCAA: 0.494
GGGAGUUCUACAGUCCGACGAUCUCACCCUGUGGUGCAACACUUGAAAGACCCGGCUAGAGGCACUAUGGACUUCAGGAUCCACUAGACAGUUUUCAGUUUGCUUGGAGGUAGCUGGGUAAUCAAAAAUGUUUUGGAAUUCUCGGGUGCCAA: 0.859
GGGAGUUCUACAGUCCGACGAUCUUUAGAUCUUCUGGGGUAUGCACAGCUUUAAUGAAUUAAAUUUACUGGAAUCAAUUGAAAUAAGAGGACUCAAGGUUUGUUCUAAUGAAGUUUGUCAAAUUACUCUUUGGUGGAAUUCUCGGGUGCCAA: 0.427
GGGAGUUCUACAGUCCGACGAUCGCAUGUUCUGGGCUUAGCGACAGAGGCAAGCAAGGGACUGGUGUCUCUGGUGAGAGGUGGGUUUGAUGUAUCUCUGUCCUAUGCUGGUCUCUCUUCUCCUUUAUAAAAUCUGGAAUUCUCGGGUGCCAA: 15.5

Set 3
Target: Prothrombin, mature alpha-thrombin (F2, Homo sapiens, UniProt P00734)
Technique: aptamer microarray, sandwich
Molecule type: DNA with 2'F-ANA
Matrix: in vitro
Tested at: 200 nM
Notes: whole 15-mer aptamer, many near background
With: Cy3 exosite-II aptamer, 400 nM
Direction: higher = stronger binding
Measurement: mean fluorescence intensity
Strand: GGTTGGTGTGGTTGG
2'F-ANA at 1 3 4 6 7 10 11 13 15: 87 a.u.
2'F-ANA at 1 3 4 5 6 7 8 9 13: 59.1 a.u.
2'F-ANA at 5 8 9 10 11 12 13 15: 57.3 a.u.
2'F-ANA at 3 4 5 6 7 8 10 12: 59 a.u.
2'F-ANA at 3 4 6 7 8 10 13 14 15: 170 a.u.
2'F-ANA at 1 2 5 7 9 10 11 13 14: 42.7 a.u.
2'F-ANA at 3 5 6 10 13 15: 52.6 a.u.
2'F-ANA at 1 2 6 7 10 11 12 13 15: 70 a.u.
2'F-ANA at 1 3 6 10 12 15: 130 a.u.
2'F-ANA at 2 3 4 5 6 8 10 11 13 15: 52.6 a.u.
2'F-ANA at 2 3 10 12 13 14 15: 280 a.u.
2'F-ANA at 4 5 6 7 10 11 12: 61.9 a.u.
2'F-ANA at 1 2 4 6 9 10 11 12 13: 53 a.u.
2'F-ANA at 3 4 5 6 7 11 12: 159 a.u.
2'F-ANA at 1 3 5 6 9 10 13: 43.4 a.u.
2'F-ANA at 3 8 9 10 13 14 15: 374 a.u.
2'F-ANA at 1 4 6 8 9 12 13: 191 a.u.

Set 4
Target: Ras GTPase-activating protein-binding protein 1, RRM domain (G3BP1, Homo sapiens, UniProt Q13283)
Sequence of UniProt Q13283 (whole entry, looked up): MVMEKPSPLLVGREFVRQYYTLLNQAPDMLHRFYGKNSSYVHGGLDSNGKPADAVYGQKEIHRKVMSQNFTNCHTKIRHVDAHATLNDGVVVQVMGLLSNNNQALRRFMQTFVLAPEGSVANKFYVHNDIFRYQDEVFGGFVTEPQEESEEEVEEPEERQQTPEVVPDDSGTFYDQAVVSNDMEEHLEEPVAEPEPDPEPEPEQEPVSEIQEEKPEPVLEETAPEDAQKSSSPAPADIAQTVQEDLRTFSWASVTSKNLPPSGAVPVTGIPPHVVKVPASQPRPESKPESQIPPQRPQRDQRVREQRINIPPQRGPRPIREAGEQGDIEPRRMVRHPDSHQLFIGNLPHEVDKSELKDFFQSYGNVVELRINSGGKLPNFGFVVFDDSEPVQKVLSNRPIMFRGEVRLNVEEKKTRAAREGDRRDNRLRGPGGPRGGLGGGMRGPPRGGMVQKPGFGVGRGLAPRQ
Technique: RNA Bind-n-Seq
Molecule type: RNA
Matrix: in vitro
Tested at: 1 µM
Notes: whole 134-nt RNA, ends assumed
With: 150 mM KCl
Relative to: input library
Direction: higher = stronger binding
Measurement: log2 enrichment
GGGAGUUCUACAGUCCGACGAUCCUGUGCUACACAUCGUAUGUACCGAAUCGGGGAAAGGGGAAAAAAAGGGGAAAAAAAGGGGAAAGUAUUAUGUUACGCCGUUCGGAUCUGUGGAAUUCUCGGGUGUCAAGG: 0.486
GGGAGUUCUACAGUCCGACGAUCAGUUACUCAGUUCAUUUUGGAUAACUACAUUGAAAGAGGAAAAGGAUCUGCUUGCAGAAUAGUUUGUACUCAGCCAAGAAGAAUUAGUGCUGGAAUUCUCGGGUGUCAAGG: -0.256
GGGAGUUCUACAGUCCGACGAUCAAGUCCUGUGCUACACAUCGUAUGUACCGAAUCGGGGCCCCGGCCCCGGGCCCCGGAAAGUAUUAUGUUACGCCGUUCGGAUCUGCACUUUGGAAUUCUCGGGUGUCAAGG: -0.929
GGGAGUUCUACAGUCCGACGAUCGUCCUGUGCUACACAUCGUAUGUACCGAAUCGGGGAAAAAGGGGUGGGGAAAAAGGGGAAAGUAUUAUGUUACGCCGUUCGGAUCUGCACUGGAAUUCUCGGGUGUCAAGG: 0.846
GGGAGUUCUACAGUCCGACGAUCAGUCCUGUGCUACACAUCGUAUGUACCGAAUCGGGAAAAAAAGGGAGGGUUUUUGGGAAAGUAUUAUGUUACGCCGUUCGGAUCUGCACUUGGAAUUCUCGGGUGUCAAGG: 0.559
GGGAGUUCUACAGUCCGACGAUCUAACUUUAGAGGAGGAUCUGAUGGAUAUGGCAGUGGACGUGGAGUUGGGGAUGGCUAUAAUGGGUAUGGAGGAGGACCUGGAGGUGGCAAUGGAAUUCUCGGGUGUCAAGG: -0.735
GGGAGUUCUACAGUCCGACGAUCUCAAGUCCUGUGCUACACAUCGUAUGUACCGAAUCGGCCCGGCCCGGGCCCGGGGAAAGUAUUAUGUUACGCCGUUCGGAUCUGCACUUCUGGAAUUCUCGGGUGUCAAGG: -0.569
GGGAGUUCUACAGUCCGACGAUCGCUGUUCUUGCCUUAGCUGCAUCUUGGACCUCAAGACAAGUAGGAGAACGGACGUUGACCGGUACGGUAAUAGACAGUGGAGAUGGUGUCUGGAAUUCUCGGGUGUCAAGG: -0.329
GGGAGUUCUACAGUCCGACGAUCCAAGUCCUGUGCUACACAUCGUAUGUACCGAAUCGGUUUUUGGUGGUUUUUUUGGAAAGUAUUAUGUUACGCCGUUCGGAUCUGCACUUCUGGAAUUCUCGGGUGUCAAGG: -0.265
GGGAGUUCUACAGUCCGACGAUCUCAAGUCCUGUGCUACACAUCGUAUGUACCGAAUCGGUUUGGUUUUUGGUUUGGAAAGUAUUAUGUUACGCCGUUCGGAUCUGCACUUCCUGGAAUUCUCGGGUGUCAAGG: -0.226
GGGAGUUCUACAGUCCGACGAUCAGUCCUGUGCUACACAUCGUAUGUACCGAAUCGGGAAAAAAAGGGUUUUUGGGAGGGAAAGUAUUAUGUUACGCCGUUCGGAUCUGCACUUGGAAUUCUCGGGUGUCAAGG: 0.585
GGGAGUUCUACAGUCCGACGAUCAGUCCUGUGCUACACAUCGUAUGUACCGAAUCGGGGAGGGGUGGGGAAAAAAAGGGGAAAGUAUUAUGUUACGCCGUUCGGAUCUGCACUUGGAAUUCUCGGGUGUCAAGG: 0.797
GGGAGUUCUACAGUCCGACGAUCGUCCUGUGCUACACAUCGUAUGUACCGAAUCGGGCCCCCGGGCCCCCGGGCCCCCGGGAAAGUAUUAUGUUACGCCGUUCGGAUCUGCACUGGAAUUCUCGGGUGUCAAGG: -0.846
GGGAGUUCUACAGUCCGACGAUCGCAGGAAGUAAAAACAAAUGGAAAUGCUUCGGAUAGUGGCAGGGGUGGGGGAAACUAAGGAAAGGGUGGGAUGGGAGUGGGUAAAGAGUUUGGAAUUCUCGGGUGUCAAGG: 1.52
